Assay results gathered from unrelated publications.
Protocols differ between the studies behind these lines. “And” joins repeats or separate records; there may be more than shown. ± gives the spread as reported. Values after ≈ are worked out from the molar mass of the structure shown.
OPRL1: Nociceptin receptor (OPRL1, Homo sapiens, UniProt P41146)

Sequences of proteins named here, by UniProt entry; tags and fusion partners are left off. Residues count along the entry.
UniProt P41146, whole entry: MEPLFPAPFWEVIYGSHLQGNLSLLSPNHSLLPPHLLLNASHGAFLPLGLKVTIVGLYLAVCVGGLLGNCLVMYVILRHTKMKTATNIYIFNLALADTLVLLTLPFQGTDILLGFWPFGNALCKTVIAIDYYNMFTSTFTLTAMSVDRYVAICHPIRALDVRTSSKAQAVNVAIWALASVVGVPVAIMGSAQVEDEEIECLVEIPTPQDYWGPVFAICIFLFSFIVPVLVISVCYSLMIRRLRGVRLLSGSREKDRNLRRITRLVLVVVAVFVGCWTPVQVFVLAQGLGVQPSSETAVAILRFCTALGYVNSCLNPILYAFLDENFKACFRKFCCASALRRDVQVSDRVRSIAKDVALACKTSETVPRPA
UniProt P49582, 23-502 limits assumed: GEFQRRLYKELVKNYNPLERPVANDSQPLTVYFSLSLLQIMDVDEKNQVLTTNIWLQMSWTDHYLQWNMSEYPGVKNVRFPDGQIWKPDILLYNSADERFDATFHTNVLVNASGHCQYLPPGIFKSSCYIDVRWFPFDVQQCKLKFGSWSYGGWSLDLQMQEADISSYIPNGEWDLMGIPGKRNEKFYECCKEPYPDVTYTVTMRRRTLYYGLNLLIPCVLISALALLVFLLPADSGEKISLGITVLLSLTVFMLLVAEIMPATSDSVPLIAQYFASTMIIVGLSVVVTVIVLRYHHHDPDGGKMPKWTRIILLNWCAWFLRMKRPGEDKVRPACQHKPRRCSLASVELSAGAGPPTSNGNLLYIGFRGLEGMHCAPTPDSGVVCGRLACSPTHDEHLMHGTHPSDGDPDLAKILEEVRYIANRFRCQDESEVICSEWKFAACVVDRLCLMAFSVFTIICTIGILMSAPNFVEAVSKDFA

| SMILES | tested on | test | test system | setting | how to read | measurement | value |
| --- | --- | --- | --- | --- | --- | --- | --- |
| CC[C@H](C)[C@H](NC(=O)[C@H](Cc1ccc(O)cc1)NC(=O)[C@H](CO)NC(=O)[C@H](CCC(=O)O)NC(=O)[C@H](CC(N)=O)NC(=O)[C@H](CC(C)C)NC(=O)[C@H](C)NC(=O)[C@H](CCCCN)NC(=O)[C@@H](NC(=O)[C@@H](NC(=O)[C@H](CCC(N)=O)NC(=O)[C@H](CCC(N)=O)NC(=O)[C@H](CC(C)C)NC(=O)[C@H](CO)NC(=O)[C@H](CC(C)C)NC(=O)[C@H](CCSC)NC(=O)[C@H](CCC(=O)O)NC(=O)[C@H](Cc1ccc(O)cc1)NC(=O)[C@@H](NC(=O)[C@H](CC(C)C)NC(=O)[C@H](CC(=O)O)NC(=O)[C@H](CC(C)C)NC(=O)[C@H](CC(C)C)NC(=O)[C@@H](NC(=O)[C@@H](NC(=O)[C@H](CC(N)=O)NC(=O)[C@@H](NC(=O)[C@H](CCC(N)=O)NC(=O)[C@@H](NC(=O)[C@H](CC(C)C)NC(=O)[C@@H](N)CO)[C@@H](C)O)[C@@H](C)CC)[C@@H](C)O)[C@@H](C)O)[C@@H](C)O)C(C)C)C(C)C)C(=O)N[C@@H](CC(=O)O)C(=O)N[C@@H](CC(C)C)C(=O)N[C@@H](CCCCN)C(=O)N[C@@H](CCC(=O)O)C(=O)N[C@@H](CC(C)C)C(=O)O | MERS-CoV | viral replication, CPE MTT | Vero | – | – | IC50 | ~0.6 µM and 0.6 µM |
| O=C(Nc1ccc([N+](=O)[O-])cc1)Nc1ccc(S(=O)(=O)Nc2ccc(Cl)c(Cl)c2)cc1 | Bacillus anthracis | – | Sterne, Mueller-Hinton medium | – | – | MIC | 2.8 µM (≈ 1.35 µg/mL) |
| NC12CC3CC(CC(C3)C1)C2 | Influenza A virus | viral replication | MDCK, A/Swine/Iowa/13-0505/2010 (H3N2) | – | – | EC50 | < 1 µM |
| O=S1(=O)c2ccc(F)cc2-c2ccc(N3CCN4CCC3CC4)cc21 [fluorine-18 labelled] | Neuronal acetylcholine receptor subunit alpha-7 (Chrna7, Mus musculus, UniProt P49582) | – | mouse, colliculus | dose not given, 90 min, unit not given | baseline: cerebellum | binding potential BPND | 2 ± 0.5 |
| C[C@H](NP(=O)(Nc1ccn([C@H]2CS[C@@H](CO)O2)c(=O)n1)N[C@@H](C)C(=O)OCc1ccccc1)C(=O)OCc1ccccc1 | HIV-2 | viral replication | CCRF-CEM, ROD | 4 d | – | EC50 | 0.4 ± 0.33 µM |
| CC(=O)Oc1ccccc1C(=O)Nc1ncc([N+](=O)[O-])s1 | influenza A virus | cell-based | – | – | baseline: R292K mutant over wild type | IC50 ratio | > 10 fold |
| NC(=O)c1nc(F)c[nH]c1=O | Influenza A virus | plaque reduction | MDCK, GD/3 | concentration not given | – | antiviral activity | active |
| CCC1C(=O)N(C2CCN(C3CCCc4ccccc43)CC2)c2ccccc21 (stereo not shown) | OPRL1 | radioligand displacement | – | added: [3H]N/OFQ | – | Ki | 0.00863 ± 0.00096 µM |
| CSCC[C@@H]1NC(=O)[C@H](CC(C)C)NC(=O)[C@H](CCCNC(=N)N)NC(=O)[C@H](CO)NC(=O)[C@@H]2CSSC[C@@H]3NC(=O)[C@H](CO)NC(=O)CNC(=O)[C@H]([C@@H](C)O)NC(=O)[C@H](CSSC[C@H](N)C(=O)N[C@@H](CCCCN)C(=O)NCC(=O)N[C@@H](CCCCN)C(=O)NCC(=O)N[C@@H](C)C(=O)N[C@@H](CCCCN)C(=O)N2)NC(=O)[C@H](CSSC[C@@H](C(N)=O)NC(=O)[C@H](CCCCN)NC(=O)CNC(=O)[C@H](CO)NC(=O)[C@H](CCCNC(=N)N)NC3=O)NC(=O)[C@H](CC(=O)O)NC(=O)[C@H](Cc2ccc(O)cc2)NC1=O | Pseudomonas aeruginosa | – | – | – | – | MIC | > 500 µM |
| Nc1c(C(=O)Nc2cccc(F)c2)sc2nc(-c3cccs3)ccc12 | Bacillus anthracis | – | Sterne | – | – | MIC50 | 80 µM (≈ 29.6 µg/mL) |
| CC[C@H](C)[C@H](NC(=O)[C@H](Cc1c[nH]c2ccccc12)NC(=O)[C@H](CCCCN)NC(=O)[C@H](CCCCN)NC(=O)[C@H](CC(C)C)NC(=O)[C@H](Cc1c[nH]c2ccccc12)NC(=O)[C@H](CCCCN)NC(=O)[C@@H](N)Cc1c[nH]c2ccccc12)C(=O)N[C@@H](CCCCN)C(N)=O | Mycobacterium bovis | – | isoniazid-resistant mutant, broth with pyruvate | 48 h, 37 °C | – | MIC | 10 µM (≈ 13.1 µg/mL) |
| CC(=O)N1C[C@@H](COP(=O)(N(C)C)N2C[C@@H](COP(=O)(N(C)C)N3C[C@@H](COP(=O)(N(C)C)N4C[C@@H](COP(=O)(N(C)C)N5C[C@@H](COP(=O)(N(C)C)N6C[C@@H](COP(=O)(N(C)C)N7C[C@@H](COP(=O)(N(C)C)N8C[C@@H](COP(=O)(N(C)C)N9C[C@@H](COP(=O)(N(C)C)N%10C[C@@H](COP(=O)(N(C)C)N%11C[C@@H](COP(=O)(N(C)C)N%12C[C@@H](COP(=O)(N(C)C)N%13C[C@@H](COP(=O)(N(C)C)N%14C[C@@H](COP(=O)(N(C)C)N%15C[C@@H](COP(=O)(N(C)C)N%16C[C@@H](COP(=O)(N(C)C)N%17C[C@@H](COP(=O)(N(C)C)N%18C[C@@H](COP(=O)(N(C)C)N%19C[C@@H](COP(=O)(N(C)C)N%20C[C@@H](COP(=O)(N(C)C)N%21C[C@@H](COP(=O)(N(C)C)N%22C[C@@H](COP(=O)(N(C)C)N%23C[C@@H](COP(=O)(N(C)C)N%24CCN(C(=O)CCCN%25C(=O)CC(SC[C@H](NC(=O)[C@H](CCCNC(=N)N)NC(=O)[C@H](CCCNC(=N)N)NC(=O)[C@H](CCCNC(=N)N)NC(=O)[C@H](CCCNC(=N)N)NC(=O)[C@H](Cc%26ccccc%26)NC(=O)[C@H](Cc%26ccccc%26)NC(=O)[C@H](CCCNC(=N)N)NC(=O)[C@H](CCCNC(=N)N)NC(=O)[C@H](CCCNC(=N)N)NC(=O)[C@H](CCCNC(=N)N)NC(=O)[C@@H](N)CCCNC(=N)N)C(N)=O)C%25=O)CC%24)O[C@@H](n%24cnc%25c(=O)[nH]c(N)nc%25%24)C%23)O[C@@H](n%23cc(C)c(=O)[nH]c%23=O)C%22)O[C@@H](n%22ccc(N)nc%22=O)C%21)O[C@@H](n%21cnc%22c(N)ncnc%22%21)C%20)O[C@@H](n%20cc(C)c(=O)[nH]c%20=O)C%19)O[C@@H](n%19ccc(N)nc%19=O)C%18)O[C@@H](n%18cc(C)c(=O)[nH]c%18=O)C%17)O[C@@H](n%17cc(C)c(=O)[nH]c%17=O)C%16)O[C@@H](n%16cnc%17c(=O)[nH]c(N)nc%17%16)C%15)O[C@@H](n%15ccc(N)nc%15=O)C%14)O[C@@H](n%14cnc%15c(=O)[nH]c(N)nc%15%14)C%13)O[C@@H](n%13ccc(N)nc%13=O)C%12)O[C@@H](n%12ccc(N)nc%12=O)C%11)O[C@@H](n%11cnc%12c(N)ncnc%12%11)C%10)O[C@@H](n%10cc(C)c(=O)[nH]c%10=O)C9)O[C@@H](n9cc(C)c(=O)[nH]c9=O)C8)O[C@@H](n8cc(C)c(=O)[nH]c8=O)C7)O[C@@H](n7cc(C)c(=O)[nH]c7=O)C6)O[C@@H](n6cc(C)c(=O)[nH]c6=O)C5)O[C@@H](n5cnc6c(=O)[nH]c(N)nc65)C4)O[C@@H](n4cc(C)c(=O)[nH]c4=O)C3)O[C@@H](n3cnc4c(=O)[nH]c(N)nc43)C2)O[C@@H](n2cnc3c(=O)[nH]c(N)nc32)C1 (stereo partly shown) | Kaposi's sarcoma-associated herpesvirus | immunofluorescence | BCBL1 cells | 16 µM, 48 h, added 4 h before TPA, added: TPA 20 ng/mL | – | RTA-positive cells | ~5% |
| O=C1Cc2ccccc2N1C1CCN([C@H]2CC[C@@H]3CCCc4cccc2c43)CC1 (relative stereo) | OPRL1 | agonist | cell membranes | – | – | EC50 | 0.0849 ± 0.00112 µM |
| CS(=O)(=O)NC(=O)NCc1cc(-c2ccc(Br)cc2)oc1-c1ccncc1 | Mycobacterium tuberculosis | OD600 | cyd deletion mutant | – | – | MIC | 0.12 µM (≈ 0.054 µg/mL) |
| Nc1c(C(=O)Nc2ccc(Cl)cc2F)sc2nc(-c3cccs3)ccc12 | Bacillus anthracis | – | Sterne | – | – | MIC50 | 20 µM (≈ 8.08 µg/mL) |
| CC(C)[C@H](NC(=O)[C@H](Cc1c[nH]c2ccccc12)NC(=O)[C@H](CCCNC(=N)N)NC(=O)[C@H](Cc1c[nH]c2ccccc12)NC(=O)[C@H](Cc1c[nH]c2ccccc12)NC(=O)[C@H](CCCNC(=N)N)NC(=O)[C@@H](N)CCCNC(=N)N)C(=O)N[C@H](C(=O)N[C@@H](Cc1c[nH]c2ccccc12)C(N)=O)C(C)C | Bacillus anthracis | – | 34F2 Sterne, LB medium | 24 h, 37 °C | – | MIC | 20 µM (≈ 28.6 µg/mL) |
| CCC(C(=O)Nc1sc(C(N)=O)c(C)c1C(=O)OC)c1ccc(F)cc1 (stereo not shown) | vaccinia virus mD4 surrogate | viral replication, plaque | BSC-1 | 24 h | – | EC50 | 13.2 ± 2.9 µM |
| Cc1cc(/C=C/C#N)cc(C)c1Oc1nc(NC2CCN(Cc3ccc(P(C)(C)=O)cc3)CC2)nc2ccsc12 | HIV-1 | – | MT-4, E138K | – | baseline: doravirine EC50 over cpd EC50 | EC50 fold change | ~8.74 fold |
| CCCSc1nc(N[C@@H]2C[C@H]2c2ccc(F)c(F)c2)c2nnn([C@@H]3C[C@H](OCCO)[C@@H](O)[C@H]3O)c2n1 | – | – | STEMI patients, plasma | oral, 180 mg loading dose, median, added: fentanyl | – | Tmax | 6 h |

Excerpt of the above:
| SMILES | tested on | test | test system | setting | how to read | measurement | value |
| --- | --- | --- | --- | --- | --- | --- | --- |
| CC[C@H](C)[C@H](NC(=O)[C@H](Cc1ccc(O)cc1)NC(=O)[C@H](CO)NC(=O)[C@H](CCC(=O)O)NC(=O)[C@H](CC(N)=O)NC(=O)[C@H](CC(C)C)NC(=O)[C@H](C)NC(=O)[C@H](CCCCN)NC(=O)[C@@H](NC(=O)[C@@H](NC(=O)[C@H](CCC(N)=O)NC(=O)[C@H](CCC(N)=O)NC(=O)[C@H](CC(C)C)NC(=O)[C@H](CO)NC(=O)[C@H](CC(C)C)NC(=O)[C@H](CCSC)NC(=O)[C@H](CCC(=O)O)NC(=O)[C@H](Cc1ccc(O)cc1)NC(=O)[C@@H](NC(=O)[C@H](CC(C)C)NC(=O)[C@H](CC(=O)O)NC(=O)[C@H](CC(C)C)NC(=O)[C@H](CC(C)C)NC(=O)[C@@H](NC(=O)[C@@H](NC(=O)[C@H](CC(N)=O)NC(=O)[C@@H](NC(=O)[C@H](CCC(N)=O)NC(=O)[C@@H](NC(=O)[C@H](CC(C)C)NC(=O)[C@@H](N)CO)[C@@H](C)O)[C@@H](C)CC)[C@@H](C)O)[C@@H](C)O)[C@@H](C)O)C(C)C)C(C)C)C(=O)N[C@@H](CC(=O)O)C(=O)N[C@@H](CC(C)C)C(=O)N[C@@H](CCCCN)C(=O)N[C@@H](CCC(=O)O)C(=O)N[C@@H](CC(C)C)C(=O)O | MERS-CoV | viral replication, CPE MTT | Vero | – | – | IC50 | ~0.6 µM and 0.6 µM |
| CS(=O)(=O)NC(=O)NCc1cc(-c2ccc(Br)cc2)oc1-c1ccncc1 | Mycobacterium tuberculosis | OD600 | cyd deletion mutant | – | – | MIC | 0.12 µM (≈ 0.054 µg/mL) |
